Measurements from different studies.
Every numbered part comes from another study and shows a few of its results, in no order. Positions count from the first letter of the parent shown.

Block 1
Target: NFIL3, bZIP domain (human)
Technique: DHFR protein complementation
Sample: yeast
Setting: single substitutions, most at no-binding floor
Baseline: wild-type JUN-FOS pair
Direction: higher = stronger binding
Quantity: binding fitness
Starting sequence: JUN, bZIP domain (human); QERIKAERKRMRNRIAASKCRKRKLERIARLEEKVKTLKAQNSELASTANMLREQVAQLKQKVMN; partner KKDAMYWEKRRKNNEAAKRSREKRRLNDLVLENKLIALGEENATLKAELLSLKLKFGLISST
L45I: -1.51 natural log
L38N: -1.47 natural log
L52V: -1.52 natural log
S47L: -1.45 natural log
R53L: -1.48 natural log
L38T: -1.56 natural log
T48E: -1.47 natural log
E32Q: -1.4 natural log
A40K: -1.3 natural log
R30T: -1.23 natural log
S47V: -1.32 natural log
K36F: -1.46 natural log

Block 2
Target: RING finger protein unkempt homolog, zinc fingers 1-6, GST-SBP tag (UNK, Homo sapiens, UniProt Q9C0B0, residues 30-357)
Sequence of UniProt Q9C0B0 (30-357, looked up): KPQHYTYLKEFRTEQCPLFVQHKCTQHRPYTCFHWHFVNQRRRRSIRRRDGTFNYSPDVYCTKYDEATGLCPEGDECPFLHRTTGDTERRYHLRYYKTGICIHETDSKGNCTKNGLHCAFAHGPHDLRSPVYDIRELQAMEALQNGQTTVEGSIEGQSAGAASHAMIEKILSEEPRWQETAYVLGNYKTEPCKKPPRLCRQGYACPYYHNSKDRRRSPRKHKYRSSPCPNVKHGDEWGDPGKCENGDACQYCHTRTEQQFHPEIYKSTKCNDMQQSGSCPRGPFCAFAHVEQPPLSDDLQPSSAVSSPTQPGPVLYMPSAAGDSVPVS
Technique: RNA Bind-n-Seq
Molecule type: RNA
Sample: in vitro
Tested at: not given
Setting: RNA with constant flanks, human-mouse chimeric sites, ends assumed
Baseline: input RNA pool
Direction: higher = stronger binding
Quantity: bound/input enrichment
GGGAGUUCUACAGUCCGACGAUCUUGCUACUAACUCCAUGGGUCAAGUUCCUGUGGGAAUCAUACAGGCAGUGUUUGGACCUUCUUAGAAACAAUUCUAGAGUAGAGCGCCUUUACCAUGAUAUCGCCCAACAAGCUUUCAAACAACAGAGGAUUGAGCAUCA: 0.299 ratio
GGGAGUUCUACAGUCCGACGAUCAUCCAGUACUCCAAUCACAAAGAACUAAAGACAGAUAAUACAUUAAACCAACGUGCUCAGGCAGUUCUUCAAGCUGUGACAGCUGUCCAGACAGCAAAUACACCUCUUAGUGGCACCACACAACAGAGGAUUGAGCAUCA: 0.465 ratio
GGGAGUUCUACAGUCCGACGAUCAAGCAACGCAAACUUGAAACAAUUCGUUAUCUUGCAGCCUCAGUGUUUUUACUUGCCGCGAUAGCAUUGGGGUUUUAUAGGUUCUGGAAGGAGAACUGACGAUGAUGCUGCCGCUGCUGCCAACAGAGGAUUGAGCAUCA: 0.171 ratio
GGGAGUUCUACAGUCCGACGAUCGAUCUCGGGCCCUCCCCUCUAGUGACCUUUCGUAUAGUCACUGCUUCUGCAUCAGAUACUUUCAGCUGCAACUCCCUACUGGGUGGGGCACCCAUUUCAGGCAGAAGGUUUUGGUACCCUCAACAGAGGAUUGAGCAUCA: 0.446 ratio
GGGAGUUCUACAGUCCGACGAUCACCAUUUUCGCGGUUCAGGCUUUGUGUGUAGUUCACUUACGGUAUUAAAUUAUUAUUCUGCUUAGCUUAUAAUAAGGAUUACAAUUGUUAAAGAGGUGAUCACUGAAUACUCUGAAACUUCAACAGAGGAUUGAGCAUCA: 0.665 ratio
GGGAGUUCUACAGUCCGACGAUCUCUUUAAAAAAAAAAUUACCUUUUCUGACAGUGCUUUCCCUCCCAUAGAUCCACGUUCAAGCUCAAAGAGCAAAGGCUCCGCAAACAGCUCAAACAUAAAAGAAAGAAAGAUUUCUGAGACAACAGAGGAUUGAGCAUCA: 0.738 ratio
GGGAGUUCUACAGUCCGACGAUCUCGGAUGCUGUGCUGGGUCACUUUUCAUAUCCAGAUCCUUCACAGUGGACAGAUGAAGAAUUAGGUAUCCCUCCUGAUGACGAGGACUGAAGGUGUAAACUCUCUGGACGAGUAGGAGCACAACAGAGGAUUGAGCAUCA: 0.926 ratio

Block 3
Target: RNA binding protein fox-1 homolog 2, RRM domain, GST-SBP tag (RBFOX2, Homo sapiens, UniProt O43251-10, residues 100-194)
Technique: RNA Bind-n-Seq
Molecule type: RNA
Sample: in vitro
Tested at: 365 nM
Setting: natural RNA segment, single round, ends assumed
Baseline: no-protein control
Direction: higher = stronger binding
Quantity: RBNS enrichment (R)
Target sequence (chain): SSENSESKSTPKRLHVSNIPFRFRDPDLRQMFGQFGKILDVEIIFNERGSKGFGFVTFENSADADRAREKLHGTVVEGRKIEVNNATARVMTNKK
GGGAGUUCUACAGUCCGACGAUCAAAAGCCGAAAUCAAAUGGUCAAGGCUGCUGAGGCUAAACUCCAGCAGAGUUUGCAGCGCUGAUGUGUGAGCUGGCAGAGCAGAAUCACUCUUCAAGCGCUUGCUCUUACUGGAAUUCUCGGGUGCCAA: 0.528
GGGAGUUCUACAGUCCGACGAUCAUUGUCAUAGUACACCUGUAAAAAUGGUUGCACAUCAGAAGGGGCUUUGAAGCGCUUGUAUGUUGUUUGCCGGAGUCAUUGUAAUUUUUUUGUUUGUUUUUUUGGGCUUUUGGAAUUCUCGGGUGCCAA: 1.97
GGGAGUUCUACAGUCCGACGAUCAGAUGAAGGACUUGGCGAACAGAAAGCCCUUCGAGAUCUUGUGUACCCCACCUUCCCACACUGUGAGCUAAUGAUGUGUGGUUUCUCUGCACAUAAGUAAAUGUCUUCACUGGAAUUCUCGGGUGCCAA: 0.365
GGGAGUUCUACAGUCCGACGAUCUGACAGUGGUGCCCUAUGGAAGGGCACCUAGUUGGCUAGGGGUGUAGGCUGAGCUGAGAGGGGUGUUCUUUGGCAAGGUUCUCCCUCCUCUAGUUUCUCCCAGGAGCUGGUGGAAUUCUCGGGUGCCAA: 0.497
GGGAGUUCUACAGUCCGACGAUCCGACUACAGAGUACUUUUUUCUUAUGAUGAUUGGUGUAGAAAUGUGUGAUUUGGGUGGGCUUUUACAUCUUGCCUACCAUUGCAUGAAACAUUGGGGUUUCUUCAAAAUGUGGAAUUCUCGGGUGCCAA: 14.7
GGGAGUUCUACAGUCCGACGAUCACCAAAGGAACAAACUCCUUGGUGAAUCUGGAGUUCAGCUUUAGUUUUCAAACACAAUCUGAAAUCUGUUAGUAAAAUGAAUUCUGGGUAAAAAUGAGACUCAAGAGGCAUGGAAUUCUCGGGUGCCAA: 0.501
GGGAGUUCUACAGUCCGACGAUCCUUGUUGGCCACUUUUCAGUCCUGAGAUGAGGGCCUGAGCCAGUCUUCUCUAGGGGUGGGAUGAGACUACUCACGAGGACCAAGGAACAGAGCCCAGAGAAACAGCAGCCUGGAAUUCUCGGGUGCCAA: 0.289
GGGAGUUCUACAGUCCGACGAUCGCAUAUAUAUUUAUAUUCAUUGAUCAAACUGAUAUGCUACAGGAGAAUGUAUGCAAUGUGUAAAAAAUGCAAAUGGCUGUAUGCAUUGAAUAAAAAUAAUAUACAAUUAGUGGAAUUCUCGGGUGCCAA: 1.12
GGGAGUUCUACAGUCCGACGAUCGAGUAAAAAAAAAAUCUUCUGCUGCACAUUUUGUUUAAGUGUUACUGUUUCUGCCUGUUAAUGCUGGGAACACAAAUAGUGCAAUUUGUGCAAUUGGAGAAUCUUGCCUUUGGAAUUCUCGGGUGCCAA: 0.647
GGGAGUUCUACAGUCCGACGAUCUAAAGUCAUCACGAAAUGGAAGUUUUCCCAGGGUGGAAAAUAAGAGGAAGUGCUGCUGUAAUUGGGAGCACAAGGGGCCUCCCAAAAAGGAGCCCCACCUCAGCAUCACUUGGAAUUCUCGGGUGCCAA: 0.178
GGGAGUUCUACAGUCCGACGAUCUUGGGCUCUUAGCUUAGUCUGUUGUUUCAUGCAAACACCGUUGUAACCAAAAGCUUCUGCACUUUGCUUCUGUUCUUCCUGUACAAGAAAUGCAAACGGCCACUGCAUUUUGGAAUUCUCGGGUGCCAA: 0.544
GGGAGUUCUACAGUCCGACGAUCUUAAGGAUAUGAUUAAUAUUAUUAAUAUAAUAAUGAUGAUGAUGAUGAUGAAAACUAAGGAUUUUUCAAGAGAUCUUUCUUUCCAAAACAUUUCUGGACAGUACCUGAUUUGGAAUUCUCGGGUGCCAA: 0.456

Block 4
Target: Prothrombin, mature alpha-thrombin (F2, Homo sapiens, UniProt P00734)
Technique: aptamer microarray, sandwich
Molecule type: DNA with 2'F-ANA
Sample: in vitro
Tested at: 200 nM
Setting: whole 15-mer aptamer, many near background
Together with: Cy3 exosite-II aptamer, 400 nM
Direction: higher = stronger binding
Quantity: mean fluorescence intensity
Oligonucleotide: GGTTGGTGTGGTTGG
2'F-ANA at 1 2 3 5 6 12 14 15: 131 a.u.
2'F-ANA at 6 7 10 12 14 15: 115 a.u.
2'F-ANA at 1 2 5 6 7 8 9 12 14: 53.6 a.u.
2'F-ANA at 1 2 4 7 8 9 10 11 14 15: 49.5 a.u.
2'F-ANA at 1 4 9 10 13: 47.8 a.u.
2'F-ANA at 2 4 5 6 10 11 12 13 15: 47.7 a.u.
2'F-ANA at 2 4 5 6 8 12 13: 101 a.u.
2'F-ANA at 1 3 4 5 6 9 10 11 15: 102 a.u.
2'F-ANA at 2 3 4 8 11 14 15: 282 a.u.
2'F-ANA at 2 3 4 6 7 8 9 11 12 14: 265 a.u.
2'F-ANA at 3 5 6 9 11 14 15: 48.9 a.u.
2'F-ANA at 1 3 4 6 9 10 11 15: 70 a.u.
2'F-ANA at 1 3 4 6 7 8 10 12 14: 54.3 a.u.
2'F-ANA at 1 2 3 5 6 7 10 13 15: 127 a.u.
2'F-ANA at 1 2 4 5 6 8 11 12 13: 77.6 a.u.
2'F-ANA at 1 2 4 7 9 10 11 12 14: 46.5 a.u.
2'F-ANA at 2 3 6 8 10 12 13 15: 357 a.u.
2'F-ANA at 1 4 5 6 7 8 11 12 14 15: 50.5 a.u.
2'F-ANA at 2 4 5 6 8 9 11 14: 50.9 a.u.
2'F-ANA at 1 6 8 10 11 14: 62.8 a.u.
2'F-ANA at 1 3 4 5 6 10 12 13: 48.6 a.u.
2'F-ANA at 2 4 5 6 8 11 12 13 14 15: 48.9 a.u.
2'F-ANA at 1 3 4 7 9 13 14 15: 78.2 a.u.
2'F-ANA at 2 4 5 7 11 12 14 15: 47.6 a.u.
2'F-ANA at 1 3 12 14 15: 147 a.u.

Block 5
Target: CCND2, cyclin fold, Cln2 fusion (human)
Technique: yeast growth competition, sequencing
Sample: yeast
Setting: weak parent motif
Baseline: not given
Direction: higher = stronger binding
Quantity: normalised enrichment score
Starting sequence: PKN2 docking peptide (human); VSAVQKLDFSDTM
VSAVQKLDFSDVM [T12V]: 0.509
VSAVQKLDFFDTM [S10F]: 0.185
VCAVQKLDFSDTM [S2C]: 0.543
VSAVQKLKFSDTM [D8K]: 0.371
VSAVQKLDLSDTM [F9L]: 0.161
VSAVQKLRFSDTM [D8R]: 0.299
VSAVQKLDFHDTM [S10H]: 0.449
VMAVQKLDFSDTM [S2M]: 0.566
VSAVQKLDTSDTM [F9T]: -0.0127
VSAVQPLDFSDTM [K6P]: 0.0179
VSAVQKLDFKDTM [S10K]: 0.813
VSAVQKLDFSDTT [M13T]: 0.706
VSAVQKKDFSDTM [L7K]: 0.153
VSAQQKLDFSDTM [V4Q]: 0.196
VSAVQKLDFSDTY [M13Y]: 0.935
VSNVQKLDFSDTM [A3N]: 0.0837
VSAVQKLDFSDIM [T12I]: 0.554

A few entries again (block 5):
VMAVQKLDFSDTM [S2M]: 0.566
VSAVQKLDTSDTM [F9T]: -0.0127
VSAVQPLDFSDTM [K6P]: 0.0179
VSAVQKLDFKDTM [S10K]: 0.813
VSAVQKLDFSDTT [M13T]: 0.706
VSAVQKKDFSDTM [L7K]: 0.153
VSAQQKLDFSDTM [V4Q]: 0.196
VSAVQKLDFSDTY [M13Y]: 0.935
VSNVQKLDFSDTM [A3N]: 0.0837
